Experimental data from different studies.
Every numbered part comes from another study and shows a few of its results, in no order. Positions count from the first letter of the parent shown.

Set 1
Target: Histone acetyltransferase KAT6A, winged helix 2, GST fusion (KAT6A, Homo sapiens, UniProt Q92794, residues 85-181)
Technique: protein binding microarray
Form: double-stranded DNA, one strand shown
Sample: in vitro
Concentration: not given
Notes: 8-mer, flanks averaged, mean of 2 arrays, mostly near background
Baseline: not given
Direction: higher = stronger binding
Target sequence (chain): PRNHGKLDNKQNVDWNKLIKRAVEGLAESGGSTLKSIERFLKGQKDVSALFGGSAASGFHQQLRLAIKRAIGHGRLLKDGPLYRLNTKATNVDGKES
The E-score of `AATATCCA` is reported as 0.117.
For `CGTTTGTA`, the E-score was 0.0213.
With `AGGCCACT` the E-score was -0.061.
For `CTAACGAC`, the E-score was -0.172.
`AAGATTGA` gave an E-score of -0.0671.
For `GCGTTCAA`, the E-score was 0.0709.
`AGAGTGCT` has an E-score of -0.093.
`CGGCGTAA` has an E-score of -0.0424.
`GAGTAGAA` gave an E-score of -0.0602.
`TTGAGCAA` has an E-score of 0.186.
`AATTGCAC` has an E-score of 0.0846.
With `CCCCGACG` the E-score was 0.0679.
`AGGACTTA` gave an E-score of -0.127.
`TAAACCGA` gave an E-score of 0.126.
`CGCTACTC` has an E-score of 0.0949.
With `CATGCAGA` the E-score was 0.00316.
The E-score of `GTAACTTA` is reported as 0.0788.
The E-score of `CCCGGGGA` is reported as 0.06.
`GTAGAAAA` has an E-score of 0.114.
For `AACTGGTC`, the E-score was -0.128.
`AGTCTGTA` has an E-score of -0.284.
The E-score of `AATTGGCA` is reported as -0.117.
The E-score of `AATGGATG` is reported as -0.144.
For `AACATATA`, the E-score was -0.0469.
The E-score of `ACATACAC` is reported as -0.139.

Set 2
Target: Ras GTPase-activating protein-binding protein 1, RRM domain (G3BP1, Homo sapiens, UniProt Q13283)
Sequence of UniProt Q13283 (whole entry, looked up): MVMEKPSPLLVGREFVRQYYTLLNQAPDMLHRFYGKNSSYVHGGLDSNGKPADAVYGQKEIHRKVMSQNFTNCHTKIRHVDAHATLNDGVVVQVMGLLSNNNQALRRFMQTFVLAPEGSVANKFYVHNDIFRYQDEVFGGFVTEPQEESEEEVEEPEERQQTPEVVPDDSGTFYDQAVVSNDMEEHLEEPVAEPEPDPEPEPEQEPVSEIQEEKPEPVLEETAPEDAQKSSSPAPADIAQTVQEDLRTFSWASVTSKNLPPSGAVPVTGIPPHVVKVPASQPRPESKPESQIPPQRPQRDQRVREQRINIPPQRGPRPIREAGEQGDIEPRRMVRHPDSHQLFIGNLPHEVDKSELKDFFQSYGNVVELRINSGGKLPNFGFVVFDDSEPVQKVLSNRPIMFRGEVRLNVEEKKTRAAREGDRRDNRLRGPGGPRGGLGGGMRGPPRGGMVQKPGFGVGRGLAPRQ
Technique: RNA Bind-n-Seq
Form: RNA
Sample: in vitro
Concentration: 1 µM
Notes: whole 134-nt RNA, ends assumed
Together with: 150 mM KCl
Baseline: input library
Direction: higher = stronger binding
Shared flanks, not repeated: GGGAGUUCUACAGUCCGACGAUC … UGGAAUUCUCGGGUGUCAAGG
`CUCAAGUCCUGUGCUACACAUCGUAUGUACCGAAUCGGUGGAAAGGAAAAAGGAAAGUAUUAUGUUACGCCGUUCGGAUCUGCACUUCCA` has a log2 enrichment of -0.135.
`GUCCUGUGCUACACAUCGUAUGUACCGAAUCAAAUUUUUUUAAAUUUUUAAAUUUAAAAAAGUAUUAUGUUACGCCGUUCGGAUCUGCAC` gave a log2 enrichment of -0.853.
For `GCAGGAAGUAAAAACAAAUGGAAAUGCUUCGGAUAGUGGCAGGGGUGGGGGUUGCUAAGGAAAGGGUGAGAUGGGAGUGGGUAAAGAGUU`, the log2 enrichment was 1.42.
With `ACCAUGCAGGUGGGCAUCUUUGGGAAGUGGGGCAAGGGGGGGAUAGGGAGGGGGGUAAAACUUUGGGAACAGGUGGUCCCAGGUCGUUUC` the log2 enrichment was -0.376.
With `CACAGACAACACGCACCCACACAGACACAGAGGGAAGGGGUUGGGAUGGGGACAGGGUGCACAGCAGGGCGGGGUAGGACACCAGCCCCU` the log2 enrichment was -0.466.
`ACCAUGCAGGUGGGCAUCUUUGGGAAGUGGGGCAAGGGGGGGAUAGGGAGGGGGGUAACACGUUGGGAACAGGUGGUCCCAGGUCGUUUC` has a log2 enrichment of 0.995.
`ACCAUGCAGGUGGGCAUCUUUGGGAAGUGGGGCAAGGGGGAAAUAGGGAGGGGGGUAACACUUUGGGAACAGGUGGUCCCAGGUCGUUUC` gave a log2 enrichment of -0.317.
`UGUACUCGGAAGUUUCACUUACCAUCGACCACUCUCUGAUUCCGGAGGAGAGGCUCUCGCCCACCCCAUCCAUGCAGGAUGGGCUCGACC` gave a log2 enrichment of -0.196.
`ACCAUGCAGGUGGGCAUCUUUGGGAAGUGGGGCAAGGCGGGGAUAGGGAGGGGGGUAACACUUUGGGAACAGGUGGUCCCAGGUCGUUUC` gave a log2 enrichment of -0.443.

Set 3
Target: CCNB3, cyclin fold, Cln2 fusion (human)
Technique: yeast growth competition, sequencing
Sample: yeast
Notes: weak parent motif
Baseline: not given
Direction: higher = stronger binding
Starting sequence: PLK5 docking peptide (human); IFRKVGQRLLTQC; partner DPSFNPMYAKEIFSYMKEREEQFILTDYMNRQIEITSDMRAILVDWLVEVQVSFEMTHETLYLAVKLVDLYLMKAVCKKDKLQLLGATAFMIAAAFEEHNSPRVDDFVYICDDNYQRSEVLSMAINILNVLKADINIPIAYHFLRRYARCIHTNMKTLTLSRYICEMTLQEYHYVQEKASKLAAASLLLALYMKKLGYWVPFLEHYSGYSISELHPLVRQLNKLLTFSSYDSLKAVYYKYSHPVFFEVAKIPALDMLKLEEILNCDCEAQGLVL
Under “normalised enrichment score”, `Q12A` is recorded as 0.343.
`C13A`: “normalised enrichment score” 0.473.
For `G6A`, “normalised enrichment score” read 0.227.
`T11A` — result for “normalised enrichment score”: 0.806.
Under “normalised enrichment score”, `L9A` is recorded as 0.416.
Under “normalised enrichment score”, `R8A` is recorded as 0.521.
`Q7A`: “normalised enrichment score” 0.347.

Set 4
Target: Interferon regulatory factor 3, full length, phosphomimetic (IRF3, Homo sapiens, UniProt Q14653, residues 1-427, S386D/S396D/S398D/S402D/T404D/S405D)
Sequence of UniProt Q14653 (whole entry, unmodified, looked up): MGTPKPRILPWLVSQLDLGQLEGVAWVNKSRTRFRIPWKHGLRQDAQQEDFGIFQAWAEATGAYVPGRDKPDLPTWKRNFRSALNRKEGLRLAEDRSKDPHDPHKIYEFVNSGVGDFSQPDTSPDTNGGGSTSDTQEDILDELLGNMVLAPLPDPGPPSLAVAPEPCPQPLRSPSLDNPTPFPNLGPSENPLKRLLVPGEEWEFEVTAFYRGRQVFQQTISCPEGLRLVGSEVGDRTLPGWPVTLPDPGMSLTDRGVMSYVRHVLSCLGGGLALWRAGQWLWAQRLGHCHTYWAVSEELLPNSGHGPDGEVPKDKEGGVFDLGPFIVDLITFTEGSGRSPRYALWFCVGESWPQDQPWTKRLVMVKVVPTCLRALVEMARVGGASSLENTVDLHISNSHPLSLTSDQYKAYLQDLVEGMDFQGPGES
Technique: protein-binding microarray
Form: double-stranded DNA, one strand shown
Sample: in vitro
Concentration: 2540 nM top
Notes: 60-bp whole probe
Together with: salmon DNA 0.4 mg/ml
Baseline: random background probes
Direction: higher = stronger binding
Shared flanks, not repeated: GCCTAGCAC … GTCTTGATTCGCTTGACGCTGCTG
Under “fitted relative affinity”, `TTAGTTTTCGGGACTGGGTTAGTGCTA` is recorded as 1.8 z-score.
For `TCATAATTCTGATTGGAACTGTGCTAG`, “fitted relative affinity” read 0.476 z-score.
`CACGGTTTCGGTTTCGGGACGTGCTAG` — result for “fitted relative affinity”: 10.7 z-score.
`GTAGGACTGCTACTGCTTTAGTGCTAG` — result for “fitted relative affinity”: -0.807 z-score.
`GACGGTTTCGGGACTGGAGACGTGCTA` — result for “fitted relative affinity”: 4.99 z-score.
`TTAGGTTTCGACACTGGGTCAGTGCTA`: “fitted relative affinity” 2.43 z-score.
`GACGATATCAGTATCGAGCCGTGCTAG` — result for “fitted relative affinity”: 0.904 z-score.
For `TCAGGAAATGGGAAACCCACTGTGCTA`, “fitted relative affinity” read 0.549 z-score.
Under “fitted relative affinity”, `TCACTACTGTATTTGGCACTGTGCTAG` is recorded as 0.0727 z-score.
`TTAGGACTGGGTTTCGGTGAGTGCTAG` — result for “fitted relative affinity”: 1.51 z-score.
For `GACGGTATCGGACCGGGGACGTGCTAG`, “fitted relative affinity” read 0.826 z-score.
Under “fitted relative affinity”, `GACGGACTGGGTTTCGGAACGTGCTAG` is recorded as 3.19 z-score.
Under “fitted relative affinity”, `GAGGGTATCGGTTTCGGGACGTGCTAG` is recorded as 6.19 z-score.
`GAACATTTCAATTAGAAAAAGTGCTAG`: “fitted relative affinity” 0.99 z-score.
For `GATGTTTTAGGTCCCTTTTCGTGCTAG`, “fitted relative affinity” read 2.75 z-score.
`GACGGTCTCCTTATCCTGTCGTGCTAG` — result for “fitted relative affinity”: 2.94 z-score.
For `CAGGTTTCTGATGGGCCTAGGTGCTAG`, “fitted relative affinity” read 1.13 z-score.
`GACGGTTTACTTTTCCTGACGTGCTAG` — result for “fitted relative affinity”: 3.65 z-score.
`TTAGATTGCAGTATCGATTAGTGCTAG`: “fitted relative affinity” 1.43 z-score.
